# Results pooled from the literature.
# Numbered parts are unrelated; each lists some results of a single study. “And” joins repeats or separate records; there may be more than shown.

# Study 1
# Target: PABPC1L2, full length, GST fusion (mouse, UniProt A0ABA7IW68)
# Technique: RNAcompete
# Form: RNA
# Sample: in vitro
# Concentration: 20 nM
# Notes: 7-mer, probes averaged, single round
# Baseline: mean of 7-mers
# Reading: higher = stronger binding
# Target sequence (chain): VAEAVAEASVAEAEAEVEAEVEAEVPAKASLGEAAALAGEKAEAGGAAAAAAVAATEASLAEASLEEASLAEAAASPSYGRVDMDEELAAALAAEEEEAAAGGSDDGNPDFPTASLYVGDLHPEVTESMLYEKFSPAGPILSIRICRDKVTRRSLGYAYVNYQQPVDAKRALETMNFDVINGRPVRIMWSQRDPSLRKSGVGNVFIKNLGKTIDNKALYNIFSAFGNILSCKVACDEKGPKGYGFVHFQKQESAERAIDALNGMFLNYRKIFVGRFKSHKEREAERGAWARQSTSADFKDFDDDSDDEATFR
Sequence,7-mer Z-score
AAUACCG,0.066
CGCCUUA,-0.222
CACGCCC,-0.242
CAUAACA,-0.021
UCUAAGG,-0.177
UUUAGAU,0.0152
CAUUCGG,-0.05
GUGCCGC,-0.291

# Study 2
# Target: Replicase polyprotein 1ab, nsp13 helicase (rep, Severe acute respiratory syndrome coronavirus 2, UniProt P0DTD1)
# Effect on: helicase activity
# Action: inhibitor
# Technique: DTT high-content helicase
# Organism: SARS-CoV-2
# Concentration: 20 µM
Compound,inhibition
CCC(C)SSc1ncc[nH]1 (stereo not drawn),-13.9%
O=S(=O)(O)c1ccc(-c2c3nc(c(-c4ccc(S(=O)(=O)O)cc4)c4ccc([nH]4)c(-c4ccc(S(=O)(=O)O)cc4)c4nc(c(-c5ccc(S(=O)(=O)O)cc5)c5ccc2[nH]5)C=C4)C=C3)cc1,36.9%
C=CC(=O)c1ccc2ccccc2c1,-8.9%
CC(C)(C)c1ccc(S(=O)(=O)/C=C/C#N)cc1,-9.44%
O=C(O)[C@@H](S)[C@@H](S)C(=O)O,18.9%
N#CSc1cc(SC#N)c(N)nc1N,-12%
Oc1c(I)cc(I)c(O)c1I,0.18%
O=C(O)c1ccc(SSc2ccc(C(=O)O)cn2)nc1,-8.02%
CCOC(=O)C1=C(N)Oc2ccc(Br)cc2[C@H]1[C@H](C#N)C(=O)OCC,-9.28% and -11.6%
CO/N=C(\C(=O)N[C@@H]1C(=O)N2C(C(=O)O)=C(CSC(=O)c3ccco3)CS[C@H]12)c1csc(N)n1,6.99%
CC(C)n1nc(C#Cc2ccccc2)c2c(N)ncnc21,-7.22%
Nc1nnc(Sc2ncc([N+](=O)[O-])s2)s1,-9.08%
O=C(O)c1ccc(N2C(=O)/C(=C\c3ccc(-c4ccc([N+](=O)[O-])cc4)o3)C=C2c2ccccc2)cc1,28.4%
Cc1ccc(S(=O)(=O)/C=C/C#N)cc1,-12.6%

# Study 3
# Target: Signal transducer and activator of transcription 1-alpha/beta, full length (STAT1, Homo sapiens, UniProt P42224, residues 1-750)
# Sequence of UniProt P42224 (whole entry, looked up): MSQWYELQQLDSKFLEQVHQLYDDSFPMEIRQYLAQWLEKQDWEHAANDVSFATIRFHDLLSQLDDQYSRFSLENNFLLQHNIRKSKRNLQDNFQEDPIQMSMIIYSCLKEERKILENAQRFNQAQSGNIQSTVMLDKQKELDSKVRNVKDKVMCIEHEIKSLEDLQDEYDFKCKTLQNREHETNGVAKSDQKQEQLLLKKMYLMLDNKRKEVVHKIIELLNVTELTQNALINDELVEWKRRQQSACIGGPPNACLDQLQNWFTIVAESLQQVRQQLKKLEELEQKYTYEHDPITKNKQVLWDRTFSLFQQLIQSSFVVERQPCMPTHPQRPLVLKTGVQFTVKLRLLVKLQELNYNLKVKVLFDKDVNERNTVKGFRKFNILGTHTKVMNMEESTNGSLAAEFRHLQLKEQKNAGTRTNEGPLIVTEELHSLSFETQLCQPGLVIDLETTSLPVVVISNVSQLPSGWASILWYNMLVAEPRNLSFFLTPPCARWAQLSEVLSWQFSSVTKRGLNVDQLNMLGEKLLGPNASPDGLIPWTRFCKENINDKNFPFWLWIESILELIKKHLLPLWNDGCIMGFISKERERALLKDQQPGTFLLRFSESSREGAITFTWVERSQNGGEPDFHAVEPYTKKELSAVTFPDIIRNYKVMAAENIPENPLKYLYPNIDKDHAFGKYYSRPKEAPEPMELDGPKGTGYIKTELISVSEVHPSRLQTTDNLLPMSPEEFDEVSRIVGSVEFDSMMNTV
# Technique: protein-binding microarray
# Form: hairpin DNA
# Sample: in vitro
# Concentration: not given
# Notes: whole hairpin DNA, median over replicate spots
# Baseline: not given
# Reading: higher = stronger binding
Sequence,median fluorescence [a.u.]
GAGGCCTTTCCGGGAAGCCTCCTGGCTTCCCGGAAAGGCCTCACACTCTTTCCCTACACG,15500
GAGGCCTTTCCCCAAAGCCTCCTGGCTTTGGGGAAAGGCCTCACACTCTTTCCCTACACG (5mC at 13),973
GAGGCCTTCACCGGAAGCCTCCTGGCTTCCGGTGAAGGCCTCACACTCTTTCCCTACACG (5mC at 9),1250

# Study 4
# Target: Replicase polyprotein 1ab, main protease (rep, Severe acute respiratory syndrome coronavirus 2, UniProt P0DTD1)
# Effect on: enzyme activity
# Action: inhibitor
# Concentration: 20 µM
# Notes: primary screen
Structure (SMILES),inhibition [%]
CCOC(=O)C1=C(C)NC(=S)NC1c1cccc(O)c1 (stereo not drawn),87.8
O=C(/C=C/c1ccc(O)c2c1[C@@H](C(=O)O[C@H](Cc1ccc(O)c(O)c1)C(=O)O)[C@H](c1ccc(O)c(O)c1)O2)O[C@H](Cc1ccc(O)c(O)c1)C(=O)O,90.8
O=C(O)c1ccc(SSc2ccc(C(=O)O)cn2)nc1,100

# Further values, each from its own experiment
Structure (SMILES),tested on,assay,system,setting,scale,endpoint,result
Cc1nccn1CC1CCc2c(c3ccccc3n2C)C1=O.Cl (stereo not drawn),HEK-293T/ACE2,pseudovirus infection,VSV pseudotyped with SARS-CoV-2 spike,concentration not given,baseline: vehicle-treated,GFP-positive cells,102%
CC(C)n1cnc(-c2ccc(F)cc2)c1-c1ncc(C(=O)Nc2ccc(N3CCN(C)CC3)cc2)[nH]1,,phase 2a clinical trial,patients with idiopathic pulmonary fibrosis,60 mg once daily,,patients with reproductive TEAE,0%
